Assay results of several laboratories.
Each numbered part is a random draw from the data of one study; scales do not carry over between parts. Changes are numbered by the printed parent chain.

Study 1
Target: RNA binding protein fox-1 homolog 2, RRM domain, GST-SBP tag (RBFOX2, Homo sapiens, UniProt O43251-10, residues 100-194)
Method: RNA Bind-n-Seq
Form: RNA
Matrix: in vitro
Tested at: 365 nM
Notes: natural RNA segment, single round, ends assumed
Baseline: no-protein control
Reading: higher = stronger binding
Endpoint: RBNS enrichment (R)
Shared flanks, not repeated: GGGAGUUCUACAGUCCGACGAUC … UGGAAUUCUCGGGUGCCAA
Construct (chain): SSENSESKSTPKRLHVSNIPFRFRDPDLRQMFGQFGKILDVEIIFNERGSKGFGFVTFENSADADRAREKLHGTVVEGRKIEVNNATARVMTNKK
UCUGAGAAGUUGUGAAGGGUCCAGAGCCAGUCUGCUUUAGAGUCCAAUAAAGUGUAGGUGUGGCAAUGCCUGGGUCUCUGUCUUCCUUUCUAAAAUUUUCAAGUGUUUCA: 1.44
AUCCUUAUGCCAAUUCAGCUACUAAUCGGUCAUUCAUAAAUGGUGAUUAAAAUGAUCAGGUAAUUUUUAAUUGAAAAUCAUGGUGUGAAAUAUAUCUACCCAAAGAGGUA: 1.04
UUGGCUGUGUUUUAGACAGCUCCAGAAUAUAUUGUUCAGCGCAGUAAAAUAUAUUUGGAAUUUGAUGAACCAAAAAUGUGAUUUCAGAUGACUAUUUUGUGACUUUCUUA: 0.46
CCCCAGUAAACACUAAGAUGGACCUCAAGCCGACUGGUUCCUUGUACUUGAAGUACUUGCCUUUUUUGUUUCCUCAGUUUUAUGUUCUUGCAUUAUAAUUUUAUCCUAAC: 1.29
AUAUAUUUUUUAAAAAUAGGUUCAUUGAACAUAAAUCAGAUUGUUUGAGGUCAUUUUUCAGCAACAUUGGAUUCCUUUCUCCUCGGUGUGCUCAGCCUUCUCUGCAGCCU: 0.277
CAUGAACACGUCUUUGAAGUUGUGGCUGAGAAGAUGAGAGGAAUAUUUAAAUAACAUCAACAGAACAACUUCACUUUGGGCCAAACAUUUGAAAAACUUUUUAUAAAAAA: 0.405
AGCUACUGAUUUGAAUUUGUUUUUAUCUUGUCCUAAAGUCUUUGUUCUUGAAAUGCAAGGUAUUUGGGGGUUAUUUAUUAUGAAAGCAACAUACUCUUAAUGUUGAUUUU: 0.448
GGCAUUUCAGCGUCAAGUGCACUUAGCGGGGUACCCAGCCCCCCCAGUCCCAACACCUGUCCUGUGUCUCAGGGUGGUCCUAGCUUCUCCUUAGGCAGCCAGGAAUUGGA: 0.275
CUCUUCCCCACCUCUCUCAUCUAGACCAAAAAGAAGACUACAAUUUAGAUCCUUGGAGACUUUUCCUGUAUGCCUUCCAAAACUUCCUGCUCACUUAGAUGUACCUUGUG: 0.595
ACCCUUCUCUCUAGACUUGGGAAGCACUCCUUCCUAGAAGCCACACAUCACUCCAAGGCUCAGCUGGGCGCUGCUCAUCCCCAACUCUCAUAGUGACAUCACCUGUGGAU: 0.362
CAGCAGCAGUCUAAUGCCAAGGUGCUCUAGAAACACUAAUGUUCCUCCAGGGGGGACUCCUCCCCACUCCCUCAGCCCUGGGGCCCCCCUAUCCUAAGACUCGGAAAGGC: 0.265
AUGAGUUGUGUUUCUGGACUGUUUUGUUUUCCCCUUUAGACAAAGAGCAACUUAGAAGUAUUUGCAAACUUUUCCAGAACAUUCUCAAAGCCUGUGAUGGAGGAGCACAA: 0.427

Study 2
Target: Fragile X messenger ribonucleoprotein 1, C-terminal low-complexity region (Fmr1, Mus musculus, UniProt P35922)
Method: RNA Bind-n-Seq
Form: RNA
Matrix: in vitro
Tested at: 200 nM
Notes: whole 134-nt RNA, ends assumed
With: 150 mM LiCl
Baseline: input library
Reading: higher = stronger binding
Endpoint: log2 enrichment
Library: 7-deaza-guanosine replaces G
Shared flanks, not repeated: GGGAGUUCUACAGUCCGACGAUC … UGGAAUUCUCGGGUGUCAAGG
CUCAAGUCCUGUGCUACACAUCGUAUGUACCGAAUCGGGUGGGUGGGUUUGGGAAAGUAUUAUGUUACGCCGUUCGGAUCUGCACUUCCA: -0.758
CCUGUGCUACACAUCGUAUGUACCGAAUCGGAAAAAAGGGGAAAAAAGGGGAAAAAAGGGAAAGUAUUAUGUUACGCCGUUCGGAUCUGC: -0.216
UGGCCCUGGUGGCAUGCGGGGAGGAAGAGGUGACCUCAUGGAUCGUGGUGGUCCCGGUGGAAUGUUCAGAGGUGGCCGUGGUGGAGACAG: -0.13
UCCUGUGCUACACAUCGUAUGUACCGAAUCGGGGCCCCCGGGGCCCCCGGGCCCCCGGGAAAGUAUUAUGUUACGCCGUUCGGAUCUGCA: -0.546
UGGCCCUGGUGGCAUGCGGGGAGGAAGAGGUGGCCUCAUGGAUCGUGGUGGGCCCGGUGGAAUGUUCAGAGGUGGCCGUGGUGGAGACAG: 0.475
UGGCCUUAUCACUCCUGGAGGCUUUUCAUCAGUGCCUGCUGGAAUGGAGACCCCUGAACUCAUUGAGCUGAGGAAGAAGAAGAUUGAGGA: -0.648
ACCAUGCAGGUGGGCAUCUUUGGGAAGUGGGGCAAGGGGGGGAUAGGGAGGGGGGUAACACUUUGGGAACAGGUGAUCCCAGGUCGUUUC: 1.35
UGAUGAUAGUAGCAGAGAAGAUGAACAUACACAUACUAACAGUGUCACGAACUCCAGUAGUAUUGUGGACCUGCCCGUUCACCAACUCUC: -0.134
UCGCCCUGGUGGCAUGCGGGGAGGAAGAGGUGGCCUCAUGGAUCGUGGUGGUCCCGGUGGAAUGUUCAGAGGUGGCCGUGGUGGAGACAG: 0.257
AAGUCCUGUGCUACACAUCGUAUGUACCGAAUCGGGUGGGUUUGGGUUUUUUUGGGAAAGUAUUAUGUUACGCCGUUCGGAUCUGCACUU: -1.4
CCUCAAGUCCUGUGCUACACAUCGUAUGUACCGAAUCGGCGGGCGGGGCGGGAAAGUAUUAUGUUACGCCGUUCGGAUCUGCACUUCCAG: 0.406

Study 3
Target: PABPC1L2, full length, GST fusion (mouse, UniProt A0ABA7IW68)
Method: RNAcompete
Form: RNA
Matrix: in vitro
Tested at: 20 nM
Notes: 7-mer, probes averaged, single round
Baseline: mean of 7-mers
Reading: higher = stronger binding
Endpoint: 7-mer Z-score
Target sequence (chain): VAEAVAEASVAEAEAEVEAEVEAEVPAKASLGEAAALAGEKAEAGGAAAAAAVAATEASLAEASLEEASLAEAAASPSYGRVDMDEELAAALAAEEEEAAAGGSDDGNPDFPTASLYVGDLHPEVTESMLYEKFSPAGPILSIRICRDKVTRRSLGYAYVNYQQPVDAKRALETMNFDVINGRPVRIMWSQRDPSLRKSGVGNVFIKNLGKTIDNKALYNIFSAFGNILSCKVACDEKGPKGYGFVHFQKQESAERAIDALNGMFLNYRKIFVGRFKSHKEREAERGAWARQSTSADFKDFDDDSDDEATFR
GCGCUAC: 0.00254
ACACAAC: 0.0497
UACAUAC: -0.24
AGUCAGC: -0.195
AUAUUGA: -0.0699
GGCUCGA: -0.0808
AAUUAUA: 0.191
CGGGAAU: 0.0859
AAGUACG: 0.126
CCCCGAU: -0.324
AGGCACU: 0.115
CUCUCCA: -0.257
ACCUCGA: -0.179
GAUUGCU: -0.141
ACCAGCA: -0.0971
GCACAAC: -0.0264
UGAAAAG: 2.16
UGGAGCC: -0.26
GUCUGCG: -0.362
GGCAUAA: 0.454
UAUAUUA: -0.0844
UCGCAUG: -0.171
UGAUCGU: -0.238
UCGGCAU: -0.0917
AAUCCUU: -0.126

Study 4
Target: Histone acetyltransferase KAT6A, winged helix 2, GST fusion (KAT6A, Homo sapiens, UniProt Q92794, residues 85-181)
Method: protein binding microarray
Form: double-stranded DNA, one strand shown
Matrix: in vitro
Tested at: not given
Notes: 8-mer, flanks averaged, mean of 2 arrays, mostly near background
Baseline: not given
Reading: higher = stronger binding
Endpoint: E-score
Target sequence (chain): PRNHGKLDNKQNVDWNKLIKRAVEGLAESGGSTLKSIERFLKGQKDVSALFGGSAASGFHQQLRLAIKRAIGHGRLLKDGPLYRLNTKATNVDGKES
ATCCCCTC: -0.0733
ACTGGGCT: -0.157
ACTGCGAC: 0.198
TCGAGCCA: 0.0315
GCACCAAA: 0.0381
CACTAGGC: -0.0742
CACACACA: -0.0341
ATGCGCTG: 0.0813
GCAGGCCA: 0.238
CTCAATGC: -0.058
CCCTCAGC: 0.034
CCCAGACA: -0.0247
CCGACTAA: -0.145
AGGATACA: 0.0171
ATGTCTAC: -0.133
TACCAGGA: 0.169
CCATCGCA: 0.0197
AAAGGGAA: -0.0306

Study 5
Target: ABI1, truncated, D143A, DHFR fusion (Arabidopsis thaliana)
Method: DHFR PCA, deep sequencing
Matrix: yeast
Notes: methotrexate growth selection, single substitutions
With: (+)-ABA 710 µM
Baseline: wild-type fitted maximum
Reading: higher = stronger binding
Endpoint: relative binding score
Starting sequence: PYL1, truncated, DHFR fusion (Arabidopsis thaliana); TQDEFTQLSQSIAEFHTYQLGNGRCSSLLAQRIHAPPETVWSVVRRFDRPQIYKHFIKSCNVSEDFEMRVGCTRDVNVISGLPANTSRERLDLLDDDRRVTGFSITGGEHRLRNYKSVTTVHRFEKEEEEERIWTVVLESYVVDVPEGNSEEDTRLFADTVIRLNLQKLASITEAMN
K116Y: 66.6%
S63R: 105%
N77G: 98.3%
V62A: 87.3%
E128H: 106%
N114L: 37.9%
N165V: 2.46%
E125D: 103%
D92L: 80.2%
D95E: 92.2%
L138I: 106%
A35M: 82.1%
R74L: -11.4%
D144V: 77%
K58I: 80.8%
L82K: -29.4%
D65H: 97.5%

Study 6
Target: Sal-like protein 4, full length isoform A (SALL4, Homo sapiens, UniProt Q9UJQ4, residues 1-1053)
Chain of UniProt Q9UJQ4 (whole entry, looked up): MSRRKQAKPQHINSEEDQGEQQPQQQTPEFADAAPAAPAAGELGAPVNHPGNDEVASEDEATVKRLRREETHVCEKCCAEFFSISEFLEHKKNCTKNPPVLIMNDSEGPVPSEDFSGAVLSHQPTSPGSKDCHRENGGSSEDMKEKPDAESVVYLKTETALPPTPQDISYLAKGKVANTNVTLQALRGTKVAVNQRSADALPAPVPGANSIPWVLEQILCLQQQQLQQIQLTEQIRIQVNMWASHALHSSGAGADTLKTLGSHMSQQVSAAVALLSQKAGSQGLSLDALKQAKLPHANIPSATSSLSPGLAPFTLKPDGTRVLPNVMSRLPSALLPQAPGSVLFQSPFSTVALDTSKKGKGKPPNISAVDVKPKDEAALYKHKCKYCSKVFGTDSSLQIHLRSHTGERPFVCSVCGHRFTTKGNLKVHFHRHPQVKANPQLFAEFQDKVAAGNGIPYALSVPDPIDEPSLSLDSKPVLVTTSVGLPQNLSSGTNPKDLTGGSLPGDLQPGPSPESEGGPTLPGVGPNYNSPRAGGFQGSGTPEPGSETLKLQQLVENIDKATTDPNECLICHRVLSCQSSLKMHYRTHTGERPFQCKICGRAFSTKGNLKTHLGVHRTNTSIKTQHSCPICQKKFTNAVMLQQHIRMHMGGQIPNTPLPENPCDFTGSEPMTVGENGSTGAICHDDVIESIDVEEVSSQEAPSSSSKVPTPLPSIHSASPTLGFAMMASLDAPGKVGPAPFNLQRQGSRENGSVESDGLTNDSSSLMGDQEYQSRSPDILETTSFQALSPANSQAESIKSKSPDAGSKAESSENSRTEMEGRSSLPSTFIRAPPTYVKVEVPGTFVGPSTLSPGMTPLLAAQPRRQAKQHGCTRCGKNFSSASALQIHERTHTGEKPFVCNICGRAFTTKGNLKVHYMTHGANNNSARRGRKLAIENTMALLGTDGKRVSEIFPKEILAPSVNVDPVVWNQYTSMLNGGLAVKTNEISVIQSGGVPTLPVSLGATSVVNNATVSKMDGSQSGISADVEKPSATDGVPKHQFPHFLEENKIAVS
Method: universal PBM
Form: double-stranded DNA, one strand shown
Matrix: in vitro
Tested at: 600 nM
Notes: 8-mer, flanks averaged, mean of replicates
Reading: higher = stronger binding
Endpoint: E-score
ATCCTGTG: 0.0174
TCGTTTAA: 0.14
CTATAGTC: 0.143
ACGACGGA: -0.0184
CATAAGAA: 0.311
AGTGTCGG: -0.213
GCCGAATA: 0.0273
AACTGGGA: -0.143
CAAATGGA: 0.103
CCGCGGCC: -0.407
CATCACTA: 0.257
ATTTGCCC: 0.0155
AAACTCGC: -0.0392
AGCTTGAT: 0.0689
ATCCCGTC: -0.156
CGAGACCC: -0.363
ACTGCCCC: -0.247
AATTCCTC: 0.0558
AGAACAAA: 0.356
CGGCTCAA: -0.0924
CATGCGCC: -0.344

A few entries again (study 5):
R74L: -11.4%
L82K: -29.4%
D92L: 80.2%
V62A: 87.3%
N114L: 37.9%
D95E: 92.2%
E125D: 103%
A35M: 82.1%
